Assay results from different studies.
Parts stem from different laboratories: compare values within a part only. Changes are numbered by the printed parent chain.

Study 1 — technique: protein-binding microarray; molecule type: hairpin DNA; sample: in vitro; tested at: not given; baseline: not given; direction: higher = stronger binding; measurement: median fluorescence
Target: Cyclic AMP-dependent transcription factor ATF-1, full length (ATF1, Homo sapiens, UniProt P18846, residues 1-271)
Setting: whole hairpin DNA, median over replicate spots
Construct (chain): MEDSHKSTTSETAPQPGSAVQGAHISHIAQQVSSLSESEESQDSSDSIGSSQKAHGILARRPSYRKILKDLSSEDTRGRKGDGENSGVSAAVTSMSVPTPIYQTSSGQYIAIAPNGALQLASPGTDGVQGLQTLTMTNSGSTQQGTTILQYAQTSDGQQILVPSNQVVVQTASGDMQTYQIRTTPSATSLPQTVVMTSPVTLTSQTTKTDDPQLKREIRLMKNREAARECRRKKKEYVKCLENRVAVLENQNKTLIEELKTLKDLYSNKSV
Strand = GAGGCCGGGTGACGTCAGCCTCCTGGCTGACGTCACCCGGCCTCACACTC (5mC at 36); value = 17800 a.u.
Strand = GAGGCCGACGACGTCATGCCTCCTGGCATGACGTCGTCGGCCTCACACTC (5mC at 9 15 35); value = 4300 a.u.
Strand = GAGGCCCGCTGACGTCAGCCTCCTGGCTGACGTCAGCGGGCCTCACACTC (5mC at 37); value = 11500 a.u.
Strand = GAGGCCGGCTCACGTCAGCCTCCTGGCTGACGTGAGCCGGCCTCACACTC; value = 4700 a.u.
Strand = GAGGCCGCGTGACGTCAGCCTCCTGGCTGACGTCACGCGGCCTCACACTC (5mC at 8); value = 16700 a.u.
Strand = GAGGCCGGATGACGTCGGCCTCCTGGCCGACGTCATCCGGCCTCACACTC; value = 9980 a.u.
Strand = GAGGCCGACGACCGCGTGCCTCCTGGCACGCGGTCGTCGGCCTCACACTC (5mC at 9 13 15 29 31 35); value = 3650 a.u.
Strand = GAGGCCGGATGCGGTCAGCCTCCTGGCTGACCGCATCCGGCCTCACACTC (5mC at 12); value = 3440 a.u.

Study 2 — target: XBP1, bZIP domain (human); technique: DHFR protein complementation; sample: yeast; baseline: wild-type JUN-FOS pair; direction: higher = stronger binding; measurement: binding fitness
Setting: single substitutions, most at no-binding floor
Starting sequence: JUN, bZIP domain (human); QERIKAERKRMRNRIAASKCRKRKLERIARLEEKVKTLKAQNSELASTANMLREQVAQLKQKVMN; partner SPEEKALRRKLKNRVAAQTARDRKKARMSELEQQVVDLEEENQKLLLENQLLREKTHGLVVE
Change = K39W; value = -1.38 natural log
Change = E54S; value = -1.15 natural log
Change = S43I; value = -0.683 natural log
Change = M51T; value = -0.706 natural log
Change = A57C; value = -1.22 natural log
Change = Q55R; value = -0.845 natural log
Change = Q55G; value = -1.27 natural log
Change = R53G; value = -1.41 natural log

Study 3 — target: CCND2, cyclin fold, Cln2 fusion (human); technique: yeast growth competition, sequencing; sample: yeast; setting: weak parent motif; baseline: not given; direction: higher = stronger binding; measurement: normalised enrichment score
Starting sequence: CDC25A docking peptide (human); PPHRRRLLFACSP; partner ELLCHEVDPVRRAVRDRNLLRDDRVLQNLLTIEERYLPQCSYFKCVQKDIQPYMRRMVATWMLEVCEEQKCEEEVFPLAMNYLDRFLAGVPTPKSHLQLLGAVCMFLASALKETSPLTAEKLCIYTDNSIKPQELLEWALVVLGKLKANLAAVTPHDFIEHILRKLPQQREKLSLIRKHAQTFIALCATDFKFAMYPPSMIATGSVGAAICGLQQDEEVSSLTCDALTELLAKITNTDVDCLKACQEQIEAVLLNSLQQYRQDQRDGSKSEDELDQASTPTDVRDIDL
Change = L8M; value = 0.127
Change = C11R; value = -0.312
Change = S12T; value = 0.178
Change = F9H; value = 0.162
Change = P13L; value = -0.177
Change = L8Y; value = 0.389
Change = P1I; value = 0.283
Change = A10S; value = 0.076

Single results of other studies
SMILES = O=C(O)/C=C/c1ccc(NC(=O)Cc2c[nH]c3ccccc23)cc1; host = mouse; sample = microsomes or S9; tested at = 2 µM; time = 0.5 h; measurement = remaining compound; value = 97.1%
